Measured values pooled from the literature.
Protocols differ between the studies behind these lines.
B1: fbf-2 121-632 (Caenorhabditis elegans, UniProt Q09312); sequence looked up; chain DFSQNVRCFSADIDRSKSYGSSKHYHLKYSRPALSRNSRSFTRSNNVLPTWSLDSNGEMRSRLSLSEVLDSGDLMKFAVDKTGCQFLEKAVKGSLTSYQKFQLFEQVIGRKDDFLKLSTNIFGNYLVQSVIGISLATNDDGYTKRQEKLKNFISSQMTDMCLDKFACRVIQSSLQNMDLSLACKLVQALPRDARLIAICVDQNANHVIQKVVAVIPLKNWEFIVDFVATPEHLRQICSDKYGCRVVQTIIEKLTADSMNVDLTSAAQNLRERALQRLMTSVTNRCQELATNEYANYIIQHIVSNDDLAVYRECIIEKCLMRNLLSLSQEKFASHVVEKAFLHAPLELLAEMMDEIFDGYIPHPDTGKDALDIMMFHQFGNYVVQCMLTICCDAVSGRRQTKEGGYDHAISFQDWLKKLHSRVTKERHRLSRFSSGKKMIETLANLRSTHPIYELQSSGHDSFKTDYFSTASEHDGPELEKNGIEEGSLMLEPRSNKSSVSVKFSSSGSHGDD
B2: SAG del76 (Bos taurus, UniProt P08168); sequence looked up; chain MKANKPAPNHVIFKKISRDKSVTIYLGKRDYIDHVERVEPVDGVVLVDPELVKGKRVYVSLTCAFRYGQEDIDVMLSFRRDLYFSQVQVFPPVGASGATTRLQESLIKKLGANTYPFLLTFPDYLPCSVMLQPAPQDVGKSCGVDFEIKAFATHSTDVEEDKIPKKSSVRLLIRKVQHAPRDMGPQPRAEASWQFFMSDKPLRLAVSLSKEIYYHGEPIPVTVAVTNSTEKTVKKIKVLVEQVTNVVLYSSDYYIKTVAAEEAQEKVPPNSSLTKTLTLVPLLANNRERRGIALDGKIKHEDTNLASSTIIKEGIDKTVMGILVSYQIKVKLTVSGLLGELTSSEVATEVPFRLMHPQPEDPDTAKESFQDENFVFEEFARQNLKDAGEYKEEKTDQEAAMDE
Sequence of UniProt G3V928 (whole entry, looked up): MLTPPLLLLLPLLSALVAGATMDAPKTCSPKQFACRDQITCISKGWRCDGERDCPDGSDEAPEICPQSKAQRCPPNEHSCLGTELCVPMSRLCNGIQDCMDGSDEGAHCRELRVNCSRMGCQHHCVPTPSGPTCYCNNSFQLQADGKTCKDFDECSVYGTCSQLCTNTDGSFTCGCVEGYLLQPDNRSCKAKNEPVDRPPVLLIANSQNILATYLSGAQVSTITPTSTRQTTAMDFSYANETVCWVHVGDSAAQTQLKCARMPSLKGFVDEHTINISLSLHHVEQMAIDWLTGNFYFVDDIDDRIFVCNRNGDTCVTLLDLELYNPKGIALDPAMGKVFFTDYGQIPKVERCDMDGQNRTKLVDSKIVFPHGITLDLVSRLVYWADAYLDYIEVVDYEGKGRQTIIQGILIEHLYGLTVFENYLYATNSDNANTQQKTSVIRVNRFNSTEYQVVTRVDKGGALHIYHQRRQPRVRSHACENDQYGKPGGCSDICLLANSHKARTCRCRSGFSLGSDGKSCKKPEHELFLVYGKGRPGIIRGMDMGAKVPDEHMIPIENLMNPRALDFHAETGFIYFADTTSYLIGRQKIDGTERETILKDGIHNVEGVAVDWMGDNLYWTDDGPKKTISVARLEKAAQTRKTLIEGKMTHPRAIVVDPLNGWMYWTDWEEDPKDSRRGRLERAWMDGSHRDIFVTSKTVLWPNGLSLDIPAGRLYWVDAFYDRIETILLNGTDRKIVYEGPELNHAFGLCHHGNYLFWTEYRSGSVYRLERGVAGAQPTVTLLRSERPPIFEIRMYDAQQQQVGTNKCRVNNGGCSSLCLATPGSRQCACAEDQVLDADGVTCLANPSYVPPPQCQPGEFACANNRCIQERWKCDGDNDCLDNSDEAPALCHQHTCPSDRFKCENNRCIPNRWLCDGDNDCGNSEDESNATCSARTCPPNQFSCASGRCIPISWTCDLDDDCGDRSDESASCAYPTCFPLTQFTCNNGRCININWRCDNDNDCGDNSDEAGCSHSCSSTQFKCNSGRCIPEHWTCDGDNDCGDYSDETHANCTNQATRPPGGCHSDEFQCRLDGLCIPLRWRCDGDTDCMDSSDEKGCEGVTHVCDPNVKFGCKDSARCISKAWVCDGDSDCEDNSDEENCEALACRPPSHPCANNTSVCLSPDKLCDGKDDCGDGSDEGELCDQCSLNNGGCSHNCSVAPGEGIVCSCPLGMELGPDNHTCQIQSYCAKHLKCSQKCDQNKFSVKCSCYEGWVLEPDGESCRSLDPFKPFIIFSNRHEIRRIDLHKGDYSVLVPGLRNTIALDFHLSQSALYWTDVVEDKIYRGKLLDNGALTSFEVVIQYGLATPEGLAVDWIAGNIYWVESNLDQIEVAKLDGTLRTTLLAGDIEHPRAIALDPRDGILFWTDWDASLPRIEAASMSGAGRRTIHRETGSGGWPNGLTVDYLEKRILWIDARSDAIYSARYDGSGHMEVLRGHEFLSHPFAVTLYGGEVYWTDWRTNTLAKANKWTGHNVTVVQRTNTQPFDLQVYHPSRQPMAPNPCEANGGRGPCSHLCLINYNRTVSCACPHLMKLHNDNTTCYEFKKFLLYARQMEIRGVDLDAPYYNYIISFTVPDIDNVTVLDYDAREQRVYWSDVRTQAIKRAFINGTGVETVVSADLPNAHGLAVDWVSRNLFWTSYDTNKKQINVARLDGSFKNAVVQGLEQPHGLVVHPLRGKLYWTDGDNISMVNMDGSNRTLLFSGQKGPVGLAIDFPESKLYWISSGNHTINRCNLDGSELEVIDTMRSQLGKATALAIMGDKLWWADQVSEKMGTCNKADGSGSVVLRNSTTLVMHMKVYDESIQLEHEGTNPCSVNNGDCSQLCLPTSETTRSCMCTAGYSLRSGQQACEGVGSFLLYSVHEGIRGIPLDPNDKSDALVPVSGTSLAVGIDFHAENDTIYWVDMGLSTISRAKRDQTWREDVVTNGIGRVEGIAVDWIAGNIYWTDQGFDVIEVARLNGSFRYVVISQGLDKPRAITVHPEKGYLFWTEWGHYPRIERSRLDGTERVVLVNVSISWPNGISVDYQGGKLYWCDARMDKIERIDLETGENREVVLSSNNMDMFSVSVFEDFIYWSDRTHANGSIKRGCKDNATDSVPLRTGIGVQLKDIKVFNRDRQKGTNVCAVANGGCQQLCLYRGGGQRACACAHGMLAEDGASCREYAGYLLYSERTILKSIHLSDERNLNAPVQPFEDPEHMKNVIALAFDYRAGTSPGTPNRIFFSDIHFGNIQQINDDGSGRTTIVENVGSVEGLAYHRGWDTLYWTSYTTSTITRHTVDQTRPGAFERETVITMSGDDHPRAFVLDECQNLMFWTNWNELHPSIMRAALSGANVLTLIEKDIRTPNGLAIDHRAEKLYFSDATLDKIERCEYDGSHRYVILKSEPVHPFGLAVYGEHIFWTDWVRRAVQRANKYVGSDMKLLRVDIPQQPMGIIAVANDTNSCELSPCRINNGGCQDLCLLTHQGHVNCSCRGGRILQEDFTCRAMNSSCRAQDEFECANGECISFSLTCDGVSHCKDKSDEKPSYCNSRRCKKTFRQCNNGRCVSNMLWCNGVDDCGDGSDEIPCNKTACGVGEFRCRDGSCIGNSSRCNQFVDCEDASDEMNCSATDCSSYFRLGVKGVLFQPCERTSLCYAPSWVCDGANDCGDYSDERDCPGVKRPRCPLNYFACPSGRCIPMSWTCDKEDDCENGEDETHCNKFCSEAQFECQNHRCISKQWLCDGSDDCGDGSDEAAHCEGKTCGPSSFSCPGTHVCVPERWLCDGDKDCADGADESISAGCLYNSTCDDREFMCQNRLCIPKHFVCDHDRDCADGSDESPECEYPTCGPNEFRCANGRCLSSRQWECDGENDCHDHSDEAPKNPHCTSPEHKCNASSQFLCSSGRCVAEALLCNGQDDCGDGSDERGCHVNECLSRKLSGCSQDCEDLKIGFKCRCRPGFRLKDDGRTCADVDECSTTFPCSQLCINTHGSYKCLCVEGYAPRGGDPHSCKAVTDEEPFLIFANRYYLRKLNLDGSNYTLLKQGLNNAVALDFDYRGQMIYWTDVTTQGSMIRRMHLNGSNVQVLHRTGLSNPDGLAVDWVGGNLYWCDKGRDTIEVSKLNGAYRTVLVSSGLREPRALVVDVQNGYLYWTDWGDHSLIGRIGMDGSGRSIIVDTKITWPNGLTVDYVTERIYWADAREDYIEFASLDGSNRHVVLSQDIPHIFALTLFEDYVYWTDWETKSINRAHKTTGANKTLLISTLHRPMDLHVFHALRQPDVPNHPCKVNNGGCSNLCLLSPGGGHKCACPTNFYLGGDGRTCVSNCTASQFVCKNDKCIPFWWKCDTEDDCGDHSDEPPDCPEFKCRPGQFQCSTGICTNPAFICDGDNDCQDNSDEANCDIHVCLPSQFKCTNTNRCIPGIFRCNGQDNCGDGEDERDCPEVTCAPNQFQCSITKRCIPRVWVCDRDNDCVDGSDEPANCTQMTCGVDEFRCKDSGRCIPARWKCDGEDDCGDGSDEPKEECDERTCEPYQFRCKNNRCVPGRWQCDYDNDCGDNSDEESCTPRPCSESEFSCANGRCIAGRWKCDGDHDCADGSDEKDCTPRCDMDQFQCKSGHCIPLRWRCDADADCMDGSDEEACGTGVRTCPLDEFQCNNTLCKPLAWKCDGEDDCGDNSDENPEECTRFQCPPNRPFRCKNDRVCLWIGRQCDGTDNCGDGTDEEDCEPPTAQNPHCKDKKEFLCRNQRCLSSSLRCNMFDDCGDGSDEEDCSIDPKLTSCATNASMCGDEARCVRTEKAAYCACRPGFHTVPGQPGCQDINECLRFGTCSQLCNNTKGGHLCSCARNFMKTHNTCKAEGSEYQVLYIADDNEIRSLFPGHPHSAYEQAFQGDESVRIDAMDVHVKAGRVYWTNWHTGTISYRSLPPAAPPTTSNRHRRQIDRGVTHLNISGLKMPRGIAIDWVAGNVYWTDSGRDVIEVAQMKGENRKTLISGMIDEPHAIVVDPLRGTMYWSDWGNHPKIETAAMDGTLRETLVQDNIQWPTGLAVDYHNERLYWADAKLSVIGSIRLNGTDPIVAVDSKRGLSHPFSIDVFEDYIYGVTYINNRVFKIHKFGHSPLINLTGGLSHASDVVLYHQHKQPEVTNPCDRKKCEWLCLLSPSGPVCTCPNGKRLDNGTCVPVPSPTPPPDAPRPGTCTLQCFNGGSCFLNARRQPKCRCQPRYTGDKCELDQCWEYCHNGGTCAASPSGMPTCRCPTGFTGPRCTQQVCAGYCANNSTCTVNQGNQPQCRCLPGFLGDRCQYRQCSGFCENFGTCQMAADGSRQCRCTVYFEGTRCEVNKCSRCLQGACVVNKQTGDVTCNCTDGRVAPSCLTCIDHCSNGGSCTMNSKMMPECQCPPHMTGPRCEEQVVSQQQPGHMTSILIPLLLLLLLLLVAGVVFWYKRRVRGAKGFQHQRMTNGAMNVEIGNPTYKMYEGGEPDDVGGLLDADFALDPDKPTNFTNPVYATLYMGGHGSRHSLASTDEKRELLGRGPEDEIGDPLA
Sequence of UniProt Q7L1T6 (whole entry, unmodified, looked up): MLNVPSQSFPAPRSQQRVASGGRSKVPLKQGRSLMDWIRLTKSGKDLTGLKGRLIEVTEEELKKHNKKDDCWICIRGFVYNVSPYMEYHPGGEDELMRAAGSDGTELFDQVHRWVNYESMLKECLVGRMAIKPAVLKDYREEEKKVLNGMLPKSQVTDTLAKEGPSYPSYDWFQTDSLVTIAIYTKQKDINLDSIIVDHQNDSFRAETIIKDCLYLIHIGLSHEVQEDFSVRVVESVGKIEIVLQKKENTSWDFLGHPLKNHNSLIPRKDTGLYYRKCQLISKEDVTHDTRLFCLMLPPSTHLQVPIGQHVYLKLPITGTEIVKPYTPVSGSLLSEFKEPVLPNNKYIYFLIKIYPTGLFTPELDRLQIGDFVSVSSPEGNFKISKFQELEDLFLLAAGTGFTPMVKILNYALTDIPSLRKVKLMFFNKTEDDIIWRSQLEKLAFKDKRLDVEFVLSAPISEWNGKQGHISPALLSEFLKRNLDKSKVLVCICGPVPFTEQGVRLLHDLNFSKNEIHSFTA

DYNC1H1 (Homo sapiens, UniProt Q14204)  cortical dynein loss half-time (NUMA1 1-705 (Homo sapiens, UniProt Q14980); time-lapse imaging; Flp-In T-REx mitotic; PLK1 inhibition, with: BI2536 10 µM): 29.8 min
QGRWDHETIV  binding intensity (human MAGI1-3/6 PDZ construct (MBP fusion); automated holdup; peptide, purified PDZ protein; concentration not given, unit not given; baseline: biotin control resin, higher = stronger binding): 0.0381
FGA (Homo sapiens, UniProt P02671)  cross-linked residues (DST (Homo sapiens, UniProt Q03001); cross-linking MS; with: DSSO): K148 to K3995
LGQSMDESGLPQLTSYDCEVNAPIQGSRNLLQGEELLRALDQVN (HIF1A CTAD (Homo sapiens, UniProt Q16665))  Ki (EP300 CH1 (Homo sapiens); FP competition; peptide): 280 nM
B1 (fbf-2 121-632)  LacZ activity decrease (gld-3 850-900 P869A (Caenorhabditis elegans, UniProt Q95ZK7); LacZ luminescence, yeast two-hybrid; baseline: wild-type GLD-3, higher = lower activity): 3 fold
ACRDWTWIQCSG (MP5.1; one disulfide ring)  Ki (CTRB1 α-chymotrypsin (Bos taurus, UniProt P00766); steady-state kinetics; peptide): 24 nM
B2 (SAG del76)  relative binding (RHO light-activated, phosphorylated (Bos taurus, UniProt P02699); gel filtration; baseline: unchanged protein, lower = less binding): < 30%
MCM2 (Saccharomyces cerevisiae, UniProt P29469)  interaction screen (ORC6 (Saccharomyces cerevisiae, UniProt P38826); cross-linking MS; hits only): cross-linked
CYB5R4 (Homo sapiens, UniProt Q7L1T6)  time (NGB E60K (Homo sapiens, UniProt Q9NPG2); NO dioxygenation; 750 nM, 37 °C, E60K, with: NADH 200 µM): 100 s
DYNLRB1/DYNLL1/DYNLT1/DYNC1LI2/DYNC1I2/DYNC1H1 dynein-1 complex (Homo sapiens)  Ka (KASH5/BICD2 chimera KASH5 CC, BicD2 LIC-BD 1-154, HaloTag; pull-down): < 1.6e+06 M⁻¹
MMP9 recombinant (Homo sapiens, UniProt P14780)  relative migration (Lrp1 (Rattus norvegicus, UniProt G3V928); Schwann cell migration; Schwann cells; 10 nM, 4 h, with: fibronectin; baseline: control, higher = more migration): 2.5 fold
GSGAGKESYV  binding intensity (human MAGI1-2/6 PDZ construct (MBP fusion); automated holdup; peptide, crude extract; concentration not given, corrected by standard peak, unit not given; baseline: biotin control resin, higher = stronger binding): 0.23
FGG (Homo sapiens, UniProt P02679)  cross-linked residues (CNTRL (Homo sapiens, UniProt Q7Z7A1); cross-linking MS; with: DSSO): K231 to K1514

A few entries again:
FGG (Homo sapiens, UniProt P02679)  cross-linked residues (CNTRL (Homo sapiens, UniProt Q7Z7A1); cross-linking MS; with: DSSO): K231 to K1514
MCM2 (Saccharomyces cerevisiae, UniProt P29469)  interaction screen (ORC6 (Saccharomyces cerevisiae, UniProt P38826); cross-linking MS; hits only): cross-linked
